Measurements from different studies.
Lines come from different studies, so protocols differ. Numbers after ± are the reported error.

Compound | cell line | test | conditions | IC50
COC(=O)Oc1ccc(C(=O)COc2ccc(N3C(=O)[C@@H]4[C@@H]5C=C[C@@H]([C@H]6C[C@@H]56)[C@@H]4C3=O)cc2)cc1 | Mut6 cells | cell viability, CellTiter-Glo | 96 h | 0.0366 µM
COc1ccc(CNC[C@@](C)(O)[C@@H]2CC[C@@H](C)C[C@H]2OCc2ccccc2)cc1 | A2780 | cell growth, inhibitor, MTT | 72 h | 7.25 µM
C=CC(=O)Nc1cc(Nc2ncc(C(=O)OC(C)C)c(-c3cn(C)c4ccccc34)n2)c(OC)cc1N(C)CCN(C)C | NCI-H2073 KI SVD | cell proliferation, CellTiter-Glo | 72 h | 0.01 µM
COc1cccc(C(=O)c2cc3c(-c4ccccc4)c(OC)ccc3o2)c1 | FM3A | cell proliferation | 48 h | 13 µM
CCOC(=O)c1c(-c2ccc(OC)cc2)oc2ccc(OCc3cn(C[C@H]4O[C@H](O[C@H]5O[C@H](CO)[C@@H](O)[C@H](O)[C@H]5O)[C@H](O)[C@@H](O)[C@@H]4O)nn3)c(CN3CCCCC3)c12 | J774.A1 | cytotoxicity, resazurin | 18 h | > 200 µM
COc1ccc2[nH]c3c(C)c4ccnc(C(=O)N[C@H](C)CN(C)C)c4cc3c2c1 | HEK293T (G4C2)66-No-ATG-GFP reporter | RAN translation of r(G4C2)exp, fluorescence reporter |  | 0.8 µM
C=CC(=O)Nc1cccc(Oc2nc(Nc3ccc(N4CCN(C)CC4)cc3)nc3ccoc23)c1 | TMD8 RAC2 knock-out | calcium flux, FLIPR |  | < 0.1 µM
CCCCN1C[C@H](O)[C@@H](O)[C@@H](O)[C@H]1CO | sample G patient fibroblasts | Gb3 level lowering, LC-MS/MS, item: Gb3 d18:1/22:0 | 216 h | 10.9 µM
COc1ncccc1Cn1nc(-c2ccc(CO)o2)c2ccccc21 | SNU-1079 | cell viability, CellTiter-Glo |  | 0.21 µM
C[C@@H]1CN(C(=O)c2ccc(NC(=O)c3cc(O[C@H](C)c4c(Cl)ccc(F)c4Cl)c(N)nn3)cc2)C[C@H](C)N1 | Aska-SS (ALK exon 2-17 deletion) | cell viability |  | 0.0162 µM
C[C@@H]1CC[C@@H]([C@](C)(O)CNCc2cccc(F)c2)[C@H](OCc2ccccc2)C1 | A2780 | cell growth, inhibitor, MTT | 72 h | 9.31 µM
C=CC(=O)N1CCC([C@@H]2CCNc3c(C(N)=O)c(-c4ccc(Oc5ccccc5)cc4)nn32)CC1 | TMD8 | calcium flux, FLIPR | 1 h preincubation, together with: anti-IgM | 0.0131 µM
COc1cc(OC)cc(C(=O)c2cc3c(-c4ccccc4)c(OC)ccc3o2)c1 | FM3A | cell proliferation | 48 h | > 50 µM
C[C@H]1CN(C2COC2)CCN1c1ccc(Nc2cc(-c3ccnc(N4CCn5c(cc6c5CC(C)(C)C6)C4=O)c3CO)cn(C)c2=O)nc1 | TMD8 | calcium flux, FLIPR | 4 h preincubation, together with: anti-IgM | 0.0262 µM
COc1cccc(Cn2nc(-c3ccc(CO)o3)c3ccccc32)c1 | SNU-1079 | cell viability, CellTiter-Glo |  | 0.47 µM
COc1cccc2c1C(=O)c1c(O)c3c(c(O)c1C2=O)C[C@@](O)(C(=O)CO)C[C@@H]3O[C@H]1C[C@H](N)[C@H](O)[C@H](C)O1 | K562 compound-resistant | cell growth | 0 µM modulator | 1.96 ± 0.24 µM
N#CC[C@H](C1CCCC1)n1cc(-c2ncnc3[nH]ccc23)cn1 | human PBMC | cytokine release, item: IL-10 | 24 h, together with: anti-CD28, and anti-CD3ε | 0.0054 µM
Cc1cc(Nc2ncc(Cl)c(Nc3ccccc3S(=O)(=O)C(C)C)n2)c(OC(C)C)cc1C1CCNCC1 | Ba/F3 EML4-ALK v1, no mutation | cell viability |  | 0.0774 µM
C=CC(=O)N1CCC[C@@H](c2ccc(C(N)=O)c3[nH]ccc23)C1 | TMD8 | calcium flux, FLIPR | 2 h preincubation, together with: anti-IgM | > 1 µM
Cc1cc(N2CCc3c(c(C)nn3CC34CCC(NC(=O)[C@@H]5COCCN5)(CC3)CC4)C2)c2cnn(C)c2n1 | human PBMC | qRT-PCR, item: MX1 mRNA | together with: ssRNA | 0.0008 ± 0.0001 µM
COc1cc2nc(N3CCN(C(=O)c4ccco4)CC3)nc(N)c2cc1OC | TW01 | MTT | 48 h | 22.7 ± 13.8 µM
COc1cc(N2CCC(N3CCN(C)CC3)CC2)ccc1Nc1ncc(Cl)c(Nc2ccccc2P(C)(C)=O)n1 | Ba/F3 EML4-ALK v1, no mutation | cell viability |  | 0.0364 µM
COc1ccc(C(=O)CCc2ccc(N3C(=O)[C@@H]4[C@@H]5C=C[C@@H]([C@H]6C[C@@H]56)[C@@H]4C3=O)cc2)cc1 | Mut6 cells | cell viability, CellTiter-Glo | 96 h | 0.0184 µM
Cc1c(C)c2c(c(C)c1O)CCC(C)(COc1ccc(CC3SC(=O)NC3=O)cc1)O2 (stereo not drawn) | hepatocytes, iPSC-derived, line L3 | cell viability, RealTime-Glo MT | 72 h, differentiation day 23 | 80 µM
Cc1nc(NC(=O)N2CCC[C@H]2C(N)=O)sc1-c1ccnc(C(C)(C)C(F)(F)F)c1 | AGS | growth rate inhibition, CellTiter-Glo | 120 h | 3.49 µM
C[C@@H]1CC[C@@H]([C@](O)(CNCc2ccc(F)cc2)COCc2ccc(F)cc2)[C@H](OCc2ccc(F)cc2)C1 | A2780 | cell growth, inhibitor, MTT | 72 h | 2.26 µM

Compound | cell line | test | conditions | IC50
CCn1ncc2c1-c1cnc(N)c(c1)O[C@H](C)c1cc(F)ccc1-c1nn(C)nc1C2 | Ba/F3 (TPM3-TRKA, ETV6-TRKB, ETV6-TRKC) | cell viability | geometric mean | 0.27 µM
Cc1c(C)c2c(c(C)c1O)CCC(C)(COc1ccc(CC3SC(=O)NC3=O)cc1)O2 (stereo not drawn) | mouse primary hepatocytes | cytotoxicity, MTT | 96 h, 3D culture | 145.5 ± 0.318 µM
NCc1ccc(-c2nn(Cc3ccccn3)c3cccnc23)o1 | SNU-1079 | cell viability, CellTiter-Glo |  | 4.66 µM
C=CC(=O)Nc1cc(Nc2nccc(-c3cn(C)c4ccccc34)n2)c(OC)cc1N(C)CCN(C)C | NCI-H2073 KI SVD | cell proliferation, CellTiter-Glo | 72 h | 0.106 µM
COc1ccccc1C(=O)c1cc2c(-c3ccccc3)c(O)ccc2o1 | FM3A | cell proliferation | 48 h | > 50 µM
C[C@H](Nc1ccc2c(c1)OCCn1cc(N3C(=O)OC[C@H]3C(F)F)nc1-2)C(N)=O | MKN-1 | CellTiter-Glo | 120 h | 3.58 µM
CC#CC(=O)N1CCC[C@H]1c1nc(-c2ccc(C(=O)Nc3ccccn3)cc2)c2c(N)nccn12 | TMD8 | calcium flux, FLIPR | 1 h preincubation, together with: anti-IgM | 0.422 µM
COc1ccc(C(=O)COc2cccc(N3C(=O)[C@@H]4[C@@H]5C=C[C@@H]([C@H]6C[C@@H]56)[C@@H]4C3=O)c2)cc1 | Mut6 cells | cell viability, CellTiter-Glo | 96 h | 1.12 µM
COc1ccccc1Cn1nc(-c2ccc(CO)o2)c2ccccc21 | SNU-1079 | cell viability, CellTiter-Glo |  | 0.41 µM
O=C(Nc1c(Cl)cncc1Cl)c1ccc(OC(F)F)c(OCC2CC2)c1 | human PBMC | cytokine release, item: IFN-γ | 24 h, together with: anti-CD28, and anti-CD3ε | 0.0025 µM
COc1cc(OC)cc(C(=O)c2cc3c(-c4ccccc4)c(O)ccc3o2)c1 | FM3A | cell proliferation | 48 h | 30 ± 2 µM
Nc1ncc(-c2cnn(C3CCNCC3)c2)cc1-c1nnc(CC2CC2)o1 | OCI-AML-3 | cell viability | 72 h | 0.48 µM
OCc1ccc(-c2nn(Cc3ccccc3)c3ccccc23)o1 | SNU-1079 | cell viability, CellTiter-Glo |  | 0.83 µM
O=C(c1cc(Cc2n[nH]c(=O)c3ccccc23)ccc1F)N1CCN(C(=O)C2CC2)CC1 | MX1 |  |  | 0.611 µM
CC1(C)CCC(CN2CCN(c3ccc(C(=O)NS(=O)(=O)c4ccc(NCC5CCOCC5)c([N+](=O)[O-])c4)c(Oc4cnc5[nH]ccc5c4)c3)CC2)=C(c2ccc(Cl)cc2)C1 | KMS-12-PE | cell viability, CellTiter-Glo |  | 0.0085 ± 0.0022 µM
O=C(COc1ccc(N2C(=O)[C@@H]3[C@@H]4C=C[C@@H]([C@H]5C[C@@H]45)[C@@H]3C2=O)cc1)c1ccc(Cl)cc1 | Mut6 cells | cell viability, CellTiter-Glo | 96 h | 0.00238 µM
COc1ccc(F)cc1C(=O)NCc1ccc(-c2nn([C@@H](C)C(F)(F)F)c(N)c2C(N)=O)cc1 | TMD8 | calcium flux | together with: anti-IgM | 0.0063 µM
CC(=O)c1c(O)c(C)c(O)c2c1OC1=CC(=O)C(C(C)=O)C(=O)C12C (single isomer, unassigned; (+)) | hepatocytes, iPSC-derived, line L3 | cell viability | 24 h | 44 µM
OCc1ccc(-c2nn(Cc3ccncc3)c3cccnc23)o1 | SNU-1079 | cell viability, CellTiter-Glo |  | 13.1 µM
C#CCN1CCN(Cc2c(O)ccc3oc(-c4ccc(OC)cc4)c(C(=O)OCC)c23)CC1 | J774.A1 | cytotoxicity, resazurin | up to 200 µM, 18 h | not toxic
CCOc1cc([C@@H](CS(C)(=O)=O)N2C(=O)c3cccc(NC(C)=O)c3C2=O)ccc1OC | human PBMC | cytokine release, item: IFN-γ | 24 h, together with: anti-CD28, and anti-CD3ε | 0.15 µM
Cc1cc(/C=C/C#N)cc(C)c1Nc1ccnc(Nc2ccc(C#N)cc2)n1 | TW01 | MTT | 48 h | 4.89 ± 2.1 µM
C[C@@H]1CC[C@@H]([C@](O)(CNCc2ccccc2)COCc2ccc(F)cc2)[C@H](OCc2ccc(F)cc2)C1 | A2780 | cell growth, inhibitor, MTT | 72 h | 2.23 µM
N#Cc1ccc(Oc2ccc3c(c2)COB3O)cc1 | human PBMC | cytokine release, item: IFN-γ | 24 h, together with: anti-CD28, and anti-CD3ε | 0.61 µM
O=C(O)COCC(=O)O | hepatocytes, iPSC-derived, line L3 | cell viability, RealTime-Glo MT | 24 h, differentiation day 23 | 11800 µM

A few entries again:
Compound | cell line | test | conditions | IC50
N#CC[C@H](C1CCCC1)n1cc(-c2ncnc3[nH]ccc23)cn1 | human PBMC | cytokine release, item: IL-10 | 24 h, together with: anti-CD28, and anti-CD3ε | 0.0054 µM
Cc1cc(Nc2ncc(Cl)c(Nc3ccccc3S(=O)(=O)C(C)C)n2)c(OC(C)C)cc1C1CCNCC1 | Ba/F3 EML4-ALK v1, no mutation | cell viability |  | 0.0774 µM
C=CC(=O)N1CCC[C@@H](c2ccc(C(N)=O)c3[nH]ccc23)C1 | TMD8 | calcium flux, FLIPR | 2 h preincubation, together with: anti-IgM | > 1 µM
Cc1cc(N2CCc3c(c(C)nn3CC34CCC(NC(=O)[C@@H]5COCCN5)(CC3)CC4)C2)c2cnn(C)c2n1 | human PBMC | qRT-PCR, item: MX1 mRNA | together with: ssRNA | 0.0008 ± 0.0001 µM
COc1cc2nc(N3CCN(C(=O)c4ccco4)CC3)nc(N)c2cc1OC | TW01 | MTT | 48 h | 22.7 ± 13.8 µM
COc1cc(N2CCC(N3CCN(C)CC3)CC2)ccc1Nc1ncc(Cl)c(Nc2ccccc2P(C)(C)=O)n1 | Ba/F3 EML4-ALK v1, no mutation | cell viability |  | 0.0364 µM
COc1ccc(C(=O)CCc2ccc(N3C(=O)[C@@H]4[C@@H]5C=C[C@@H]([C@H]6C[C@@H]56)[C@@H]4C3=O)cc2)cc1 | Mut6 cells | cell viability, CellTiter-Glo | 96 h | 0.0184 µM
